Published values of several laboratories.
Compare with care: the assays were run in different laboratories. ± marks the error that the study gave.
CNR1: Cannabinoid receptor 1 (CNR1, Homo sapiens, UniProt P21554)
UniProt P21554, sequence (whole entry, looked up): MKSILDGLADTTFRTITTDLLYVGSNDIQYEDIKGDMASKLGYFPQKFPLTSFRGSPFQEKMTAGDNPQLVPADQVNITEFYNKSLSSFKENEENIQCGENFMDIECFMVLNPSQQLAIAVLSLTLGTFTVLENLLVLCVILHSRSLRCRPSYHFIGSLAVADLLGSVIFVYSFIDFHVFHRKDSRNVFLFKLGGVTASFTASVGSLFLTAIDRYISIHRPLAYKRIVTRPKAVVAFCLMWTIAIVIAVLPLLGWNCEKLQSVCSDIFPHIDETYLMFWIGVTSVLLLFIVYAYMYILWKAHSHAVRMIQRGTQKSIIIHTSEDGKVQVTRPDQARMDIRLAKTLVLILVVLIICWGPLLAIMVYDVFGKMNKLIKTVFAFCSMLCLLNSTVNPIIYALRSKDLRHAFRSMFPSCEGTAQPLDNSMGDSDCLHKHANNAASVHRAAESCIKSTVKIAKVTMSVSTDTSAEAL
Kir3.1/Kir3.4: Kir3.1/Kir3.4 (Homo sapiens, UniProt P48544+P48549)
UniProt P48549, sequence (whole entry, looked up): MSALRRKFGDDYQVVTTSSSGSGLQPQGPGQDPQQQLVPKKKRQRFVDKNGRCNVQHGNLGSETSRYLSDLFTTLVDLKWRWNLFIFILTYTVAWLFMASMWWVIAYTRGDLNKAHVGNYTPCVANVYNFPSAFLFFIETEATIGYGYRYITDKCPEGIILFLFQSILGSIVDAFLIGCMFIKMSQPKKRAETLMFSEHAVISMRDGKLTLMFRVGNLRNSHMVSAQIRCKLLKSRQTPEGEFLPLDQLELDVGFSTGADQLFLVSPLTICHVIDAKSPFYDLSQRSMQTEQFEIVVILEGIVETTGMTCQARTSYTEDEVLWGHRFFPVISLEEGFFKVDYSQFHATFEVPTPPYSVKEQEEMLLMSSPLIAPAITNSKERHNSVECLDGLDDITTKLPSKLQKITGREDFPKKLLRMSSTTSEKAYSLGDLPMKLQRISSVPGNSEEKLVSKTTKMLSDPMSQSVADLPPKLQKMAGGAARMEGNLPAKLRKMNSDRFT
UniProt P48544, sequence (whole entry, looked up): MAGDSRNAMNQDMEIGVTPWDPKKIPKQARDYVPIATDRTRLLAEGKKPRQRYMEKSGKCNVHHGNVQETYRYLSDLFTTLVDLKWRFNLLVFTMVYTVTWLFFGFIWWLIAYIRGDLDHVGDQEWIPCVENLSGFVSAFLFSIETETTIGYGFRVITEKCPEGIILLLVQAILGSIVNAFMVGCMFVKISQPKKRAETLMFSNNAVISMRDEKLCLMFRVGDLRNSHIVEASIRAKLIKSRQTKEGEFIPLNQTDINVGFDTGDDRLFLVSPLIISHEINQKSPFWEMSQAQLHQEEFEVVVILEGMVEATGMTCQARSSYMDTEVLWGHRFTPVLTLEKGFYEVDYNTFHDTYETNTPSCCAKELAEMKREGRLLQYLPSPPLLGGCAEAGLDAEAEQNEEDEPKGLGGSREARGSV
UniProt P29317, sequence (whole entry, looked up): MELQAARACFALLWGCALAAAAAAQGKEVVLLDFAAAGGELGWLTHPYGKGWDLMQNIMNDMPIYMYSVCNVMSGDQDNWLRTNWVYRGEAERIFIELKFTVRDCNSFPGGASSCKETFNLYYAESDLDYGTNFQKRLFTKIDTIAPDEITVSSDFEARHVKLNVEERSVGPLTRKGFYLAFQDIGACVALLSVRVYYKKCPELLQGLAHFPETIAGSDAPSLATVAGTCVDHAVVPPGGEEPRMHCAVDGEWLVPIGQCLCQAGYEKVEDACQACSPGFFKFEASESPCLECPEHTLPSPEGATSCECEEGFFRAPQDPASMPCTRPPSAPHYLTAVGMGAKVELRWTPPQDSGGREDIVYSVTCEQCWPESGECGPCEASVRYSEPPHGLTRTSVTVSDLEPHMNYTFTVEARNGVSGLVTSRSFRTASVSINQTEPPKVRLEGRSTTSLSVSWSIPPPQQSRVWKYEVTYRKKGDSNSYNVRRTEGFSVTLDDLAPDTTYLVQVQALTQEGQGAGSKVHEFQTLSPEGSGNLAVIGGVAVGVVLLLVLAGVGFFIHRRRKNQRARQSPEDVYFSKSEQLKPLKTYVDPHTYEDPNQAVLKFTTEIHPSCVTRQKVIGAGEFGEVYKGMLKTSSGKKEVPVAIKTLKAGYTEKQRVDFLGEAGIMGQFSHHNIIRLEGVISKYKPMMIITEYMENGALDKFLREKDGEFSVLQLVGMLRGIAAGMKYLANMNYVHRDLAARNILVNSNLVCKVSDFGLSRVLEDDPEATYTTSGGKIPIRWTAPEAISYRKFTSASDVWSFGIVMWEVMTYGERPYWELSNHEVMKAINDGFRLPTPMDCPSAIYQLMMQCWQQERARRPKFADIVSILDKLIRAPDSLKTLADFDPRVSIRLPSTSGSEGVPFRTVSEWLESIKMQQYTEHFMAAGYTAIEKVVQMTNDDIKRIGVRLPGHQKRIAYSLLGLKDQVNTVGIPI
UniProt Q9NSD7, sequence (whole entry, unmodified, looked up): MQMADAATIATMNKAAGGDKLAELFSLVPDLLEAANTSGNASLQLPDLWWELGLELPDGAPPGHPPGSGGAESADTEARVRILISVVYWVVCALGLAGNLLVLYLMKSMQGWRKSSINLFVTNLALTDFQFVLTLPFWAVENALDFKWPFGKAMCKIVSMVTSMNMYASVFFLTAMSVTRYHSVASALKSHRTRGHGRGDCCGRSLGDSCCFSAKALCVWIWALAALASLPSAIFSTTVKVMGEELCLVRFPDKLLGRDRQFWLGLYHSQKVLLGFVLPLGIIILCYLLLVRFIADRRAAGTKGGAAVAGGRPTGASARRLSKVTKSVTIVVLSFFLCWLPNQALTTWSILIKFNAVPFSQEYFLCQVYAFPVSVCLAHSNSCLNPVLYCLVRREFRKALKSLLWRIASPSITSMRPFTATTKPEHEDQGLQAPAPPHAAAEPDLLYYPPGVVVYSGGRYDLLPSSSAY
UniProt Q969F8, sequence (whole entry, unmodified, looked up): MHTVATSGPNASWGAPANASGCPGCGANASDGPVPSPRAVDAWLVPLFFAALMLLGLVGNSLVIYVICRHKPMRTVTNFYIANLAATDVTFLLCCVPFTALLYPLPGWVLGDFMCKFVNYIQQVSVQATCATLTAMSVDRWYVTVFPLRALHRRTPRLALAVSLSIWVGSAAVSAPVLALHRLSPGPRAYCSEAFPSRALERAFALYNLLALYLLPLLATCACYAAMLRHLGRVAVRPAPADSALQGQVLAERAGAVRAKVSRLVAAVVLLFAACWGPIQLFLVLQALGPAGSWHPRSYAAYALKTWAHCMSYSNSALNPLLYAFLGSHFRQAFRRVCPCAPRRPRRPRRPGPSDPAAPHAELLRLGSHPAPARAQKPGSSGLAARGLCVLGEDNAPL
UniProt Q8TDS7, sequence (whole entry, unmodified, looked up): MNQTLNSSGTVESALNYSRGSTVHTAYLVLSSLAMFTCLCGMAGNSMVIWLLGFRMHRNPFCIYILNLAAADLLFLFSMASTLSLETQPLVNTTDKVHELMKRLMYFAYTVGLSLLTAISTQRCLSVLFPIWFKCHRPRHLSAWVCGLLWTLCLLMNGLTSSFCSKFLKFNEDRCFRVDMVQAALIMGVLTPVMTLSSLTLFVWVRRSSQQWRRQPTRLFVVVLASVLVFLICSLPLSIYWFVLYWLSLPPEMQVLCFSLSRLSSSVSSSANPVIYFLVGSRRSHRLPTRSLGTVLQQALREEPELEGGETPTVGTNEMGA

| SMILES | target or system | test | system | conditions | how to read | measurement | value |
| --- | --- | --- | --- | --- | --- | --- | --- |
| CCOC(=O)C(CC)(CCCSCCOCCOCCN)NC(=O)c1ccc(C2CC2)c(Cc2ccc(F)cc2)n1 (racemic) | CNR1 | cAMP, agonist |  |  |  | Emax | 96% |
| COc1cc(C2C(NC(=O)c3ccc(NC(=O)OC(C)(C)C)cc3)(C(=O)O)C(c3ccc(OC(=O)c4cccs4)c(OC)c3)C2(NC(=O)c2ccc(NC(=O)OC(C)(C)C)cc2)C(=O)O)ccc1OC(=O)c1cccs1 (stereo not drawn) | Glucagon-like peptide 1 receptor (GLP1R, Homo sapiens, UniProt P43220, K197A) | cAMP accumulation, agonist |  | receptor mutant | baseline: wild type | Emax | 14.6 ± 1.82% |
| Cc1ncsc1-c1ccc(C(C)NC(=O)C2CC(O)CN2C(=O)C(NC(=O)CCCCCCCCCCN2CCCC(Nc3ncc(Cl)c(Nc4ccccc4S(=O)(=O)C(C)C)n3)C2)C(C)(C)C)cc1 (stereo not drawn) | 22Rv1 | RNA-seq, item: SMG9 mRNA |  | concentration not given | baseline: DMSO | log2 fold change | -1.1 |
| CCOC(=O)C(CC)(CCCSCCOCCOCCOCCOCCNc1ccc([N+](=O)[O-])c2nonc12)NC(=O)c1ccc(C2CC2)c(Cc2ccc(F)cc2)n1 (stereo not drawn) | CNR1 | cAMP, agonist |  |  |  | Emax | 110% |
| O=C(COc1cc(Cl)ccc1Cl)Nc1cc(C2CC2)nn1C1CCOCC1 | Kir3.1/Kir3.4 | thallium flux, activator | HEK293 |  | baseline: standard compound | Emax | 68% |
| CC[C@H](C)[C@@H]1NC(=O)[C@H](Cc2ccccc2)NC(=O)[C@H](CCC(=O)O)NC(=O)[C@H](CCCNC(=N)N)NC(=O)CNC(=O)[C@@H](NC(=O)[C@H](CC(C)C)NC(=O)[C@H](CCCNC(=N)N)NC(=O)[C@@H](NC(=O)CNC(=O)[C@H](Cc2ccc(O)cc2)NC(=O)[C@@H]2CCCN2C(=O)[C@H](C)NC(=O)[C@H](C)NC(=O)[C@@H](N)CCCNC(=N)N)C(C)C)CSSC[C@@H]2NC(=O)[C@@H](NC(=O)[C@H](CO)NC(=O)[C@H](CO)NC(=O)[C@H](CO)NC(=O)[C@H](CC(C)C)NC(=O)CNC(=O)[C@H](C)NC(=O)[C@H](CC(C)C)NC(=O)[C@@H](NC(=O)[C@@H](N)CC(=O)O)C(C)C)CSSC[C@H](NC(=O)CNC(=O)[C@H](Cc3c[nH]c4ccccc34)NC(=O)[C@H](CCCCN)NC2=O)C(=O)N[C@@H](CO)C(=O)N[C@@H](CCCCN)C(=O)N[C@@H](CO)C(=O)N[C@@H](CCC(=O)O)C(=O)N[C@@H]([C@@H](C)CC)C(=O)N[C@@H](CO)C(=O)N[C@@H](CO)C(=O)N[C@@H](CC(C)C)C(=O)N[C@H](C(=O)O)CSSC[C@@H](C(=O)NCC(=O)NCC(=O)N[C@@H](CO)C(=O)N[C@@H](CCCNC(=N)N)C(=O)N[C@@H](Cc2c[nH]c3ccccc23)C(=O)O)NC(=O)[C@H]([C@@H](C)O)NC(=O)[C@H](Cc2ccccc2)NC(=O)[C@H]([C@@H](C)CC)NC(=O)[C@H](C(C)C)NC(=O)[C@H](C)NC(=O)[C@H](CCCNC(=N)N)NC1=O | Relaxin-3 receptor 1 (RXFP3, Homo sapiens, UniProt Q9NSD7, S159A) |  | HEK-293T |  | baseline: wild type | Emax | 76.4 ± 4.27% |
| CNC(=N)NCCC[C@H](NC(=O)[C@H](CC(C)C)NC(=O)NNC(=O)[C@H](Cc1ccccc1)NC(=O)[C@@H](NC(=O)[C@H](CC(N)=O)NC(=O)[C@@H]1C[C@@H](O)CN1C(=O)[C@@H](Cc1ccc(O)cc1)NC(C)=O)[C@@H](C)O)C(=O)N[C@@H](Cc1c[nH]c2ccccc12)C(N)=O | KiSS-1 receptor (KISS1R, Homo sapiens, UniProt Q969F8, T155A) | inositol phosphate, agonist | HEK293 |  |  | Emax | 73.6% |
| CNS(=O)(=O)Nc1nccc(Cc2c(C)c3ccc(Oc4ncccc4F)cc3oc2=O)c1F | LAPC4 | cell viability |  | 7 days |  | IC50 | > 1 µM |
| COC1CN([C@H]2CC[C@H]([C@@]3(C)Oc4c(Cl)cc(C(=O)NCc5c(SC)cc(C)[nH]c5=O)c(C)c4O3)CC2)C1 |  | RNA-seq, item: EXTL3 | human, whole blood | dose not given, 24 h | baseline: pretreatment baseline | log2 fold change | 1.32 |
| C=C1CC[C@H](OCCCNC(=O)CCOCCOCCOCCOCCOCCOCCOCCOCCOCCOCCOCCOCCOCCOCCOCCOCCOCCOCCOCCOCCOCCOCCOCCOCCOCCOCCOCCOCCOCCOCCOCCOCCOCCOCCOCCOCCNC(=O)CCN2C(=O)CC(SC[C@H](NC(=O)[C@H](Cc3ccccc3)NC(=O)[C@H](CC(N)=O)NC(=O)[C@H](Cc3c[nH]cn3)NC(=O)[C@@H](NC(=O)[C@H](CC(=O)O)NC(=O)[C@H](CCC(N)=O)NC(=O)[C@H](CC(C)C)NC(=O)[C@H](CCCCN)NC(=O)[C@H](CCCCN)NC(=O)[C@H](CCCNC(=N)N)NC(=O)[C@H](CC(C)C)NC(=O)[C@H](Cc3c[nH]c4ccccc34)NC(=O)[C@H](CCC(=O)O)NC(=O)[C@@H](NC(=O)[C@H](CCCNC(=N)N)NC(=O)[C@H](CCC(=O)O)NC(=O)[C@H](CCSC)NC(=O)[C@H](CO)NC(=O)[C@H](CC(N)=O)NC(=O)[C@H](CC(C)C)NC(=O)[C@H](Cc3c[nH]cn3)NC(=O)[C@H](CCCCN)NC(=O)CNC(=O)[C@H](CC(C)C)NC(=O)[C@H](CC(N)=O)NC(=O)[C@H](Cc3c[nH]cn3)NC(=O)[C@H](CCSC)NC(=O)[C@H](CC(C)C)NC(=O)[C@H](CCC(N)=O)NC(=O)[C@@H](NC(=O)[C@H](CCC(=O)O)NC(=O)[C@H](CO)NC(=O)[C@@H](NC(=O)[C@@H](N)CO)C(C)C)[C@@H](C)CC)C(C)C)C(C)C)C(=O)O)C2=O)C/C1=C/C=C1\CCC[C@]2(C)[C@@H]([C@H](C)CCCC(C)(C)O)CC[C@@H]12 (stereo partly drawn) |  |  | male Sprague-Dawley rat, plasma | subcutaneous, 30 µg/kg, single dose |  | Cmax | 13.9 ng/mL |
| O=C(COc1ccc(C(F)(F)F)cc1C(F)(F)F)Nc1cc(C2CCC2)nn1CC(F)(F)F | Kir3.1/Kir3.4 | thallium flux, activator | HEK293 |  | baseline: standard compound | Emax | < 10% |
| Cc1nn(-c2cccc(N)c2)c(=O)c2cnc(Nc3ccc(N4CCNCC4)cc3)nc12 | Ephrin type-A receptor 2 (EPHA2, Homo sapiens, UniProt P29317) | enzyme activity, inhibitor |  |  |  | IC50 | > 10 µM |
| CCOC(=O)[C@](CC)(CCCSCCOCCOCCNC(=O)CCCCCN1C(=CC=CC=CC2=[N+](C)c3ccc4ccccc4c3C2(C)C)C(C)(C)c2c1ccc1ccccc21)NC(=O)c1ccc(C2CC2)c(Cc2ccc(F)cc2)n1.[Cl-] | CNR1 | cAMP, agonist |  |  |  | Emax | 118% |
| CCc1cc(NC(=O)COc2ccc(C(F)(F)F)cc2C(F)(F)F)n(C2CCC(F)(F)CC2)n1 | Kir3.1/Kir3.4 | thallium flux, activator | HEK293 |  | baseline: standard compound | Emax | 48% |
| CC(C)(C(=O)N1CCC(Nc2nc3c(c(=O)[nH]2)CCCC3)CC1)c1ccc(Cl)cc1 | MRGPRD (Homo sapiens, UniProt Q8TDS7, N157A) | miniGq recruitment, agonist, BRET | HEK293T | N157A mutant | baseline: wild type | Emax | 129 ± 2.6% |

For quick reference, copied from above:
| SMILES | target or system | test | system | conditions | how to read | measurement | value |
| --- | --- | --- | --- | --- | --- | --- | --- |
| Cc1ncsc1-c1ccc(C(C)NC(=O)C2CC(O)CN2C(=O)C(NC(=O)CCCCCCCCCCN2CCCC(Nc3ncc(Cl)c(Nc4ccccc4S(=O)(=O)C(C)C)n3)C2)C(C)(C)C)cc1 (stereo not drawn) | 22Rv1 | RNA-seq, item: SMG9 mRNA |  | concentration not given | baseline: DMSO | log2 fold change | -1.1 |
| COC1CN([C@H]2CC[C@H]([C@@]3(C)Oc4c(Cl)cc(C(=O)NCc5c(SC)cc(C)[nH]c5=O)c(C)c4O3)CC2)C1 |  | RNA-seq, item: EXTL3 | human, whole blood | dose not given, 24 h | baseline: pretreatment baseline | log2 fold change | 1.32 |
